Experimental data gathered from unrelated publications.
Compare with care: the assays were run in different laboratories. Changes are numbered by the printed parent chain. ± gives the spread as reported.
P1: C1ql1 globular C1q domain (Mus musculus); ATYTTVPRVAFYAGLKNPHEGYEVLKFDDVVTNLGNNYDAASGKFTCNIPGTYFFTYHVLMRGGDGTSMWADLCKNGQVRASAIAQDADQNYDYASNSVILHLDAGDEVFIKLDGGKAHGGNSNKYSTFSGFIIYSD
P2: DPPA3 residues 76-128 plus Trp (Mus musculus); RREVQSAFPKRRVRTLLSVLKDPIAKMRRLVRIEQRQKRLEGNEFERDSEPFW; partner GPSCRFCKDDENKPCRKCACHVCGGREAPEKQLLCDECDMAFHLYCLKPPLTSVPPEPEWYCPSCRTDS
P3: JPH2 N-terminal region (Mus musculus); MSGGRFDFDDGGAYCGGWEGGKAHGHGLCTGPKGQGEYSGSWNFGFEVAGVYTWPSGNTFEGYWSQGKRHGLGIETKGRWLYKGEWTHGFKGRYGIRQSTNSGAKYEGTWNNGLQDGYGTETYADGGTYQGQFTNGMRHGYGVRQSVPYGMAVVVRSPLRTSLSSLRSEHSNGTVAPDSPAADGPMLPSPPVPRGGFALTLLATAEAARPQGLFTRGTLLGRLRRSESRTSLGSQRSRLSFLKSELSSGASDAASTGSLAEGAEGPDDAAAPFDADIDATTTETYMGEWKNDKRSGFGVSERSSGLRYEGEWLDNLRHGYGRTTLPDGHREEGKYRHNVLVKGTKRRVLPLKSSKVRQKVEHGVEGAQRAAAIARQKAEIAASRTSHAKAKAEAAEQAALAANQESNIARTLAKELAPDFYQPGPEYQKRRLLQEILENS
P4: RPC82 (Saccharomyces cerevisiae); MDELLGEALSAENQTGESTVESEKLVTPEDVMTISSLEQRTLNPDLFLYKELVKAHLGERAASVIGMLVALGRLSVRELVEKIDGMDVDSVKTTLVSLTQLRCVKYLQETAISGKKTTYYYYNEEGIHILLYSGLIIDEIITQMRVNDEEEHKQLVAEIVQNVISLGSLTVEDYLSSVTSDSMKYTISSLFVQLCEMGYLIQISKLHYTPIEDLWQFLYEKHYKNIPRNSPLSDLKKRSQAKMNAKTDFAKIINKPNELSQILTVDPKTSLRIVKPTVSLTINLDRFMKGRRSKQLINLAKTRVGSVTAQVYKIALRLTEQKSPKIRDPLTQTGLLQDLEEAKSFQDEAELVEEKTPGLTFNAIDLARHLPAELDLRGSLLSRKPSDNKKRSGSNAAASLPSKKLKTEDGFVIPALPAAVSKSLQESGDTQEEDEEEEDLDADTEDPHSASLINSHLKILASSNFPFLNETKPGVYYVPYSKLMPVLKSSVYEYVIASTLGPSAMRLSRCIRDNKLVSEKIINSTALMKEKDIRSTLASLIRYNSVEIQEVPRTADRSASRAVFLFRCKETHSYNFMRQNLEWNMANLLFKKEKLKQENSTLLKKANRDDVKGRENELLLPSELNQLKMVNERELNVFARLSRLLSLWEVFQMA
P5: Tln1 residues 1655-1822 (Mus musculus); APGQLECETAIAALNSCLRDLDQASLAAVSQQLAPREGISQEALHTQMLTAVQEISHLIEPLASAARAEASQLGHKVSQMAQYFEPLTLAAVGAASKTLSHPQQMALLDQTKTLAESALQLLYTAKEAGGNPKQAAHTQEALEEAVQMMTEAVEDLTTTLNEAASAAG; partner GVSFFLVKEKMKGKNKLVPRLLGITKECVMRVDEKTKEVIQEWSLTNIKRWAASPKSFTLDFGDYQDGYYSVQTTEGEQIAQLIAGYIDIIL
P6: CHMP1B residues 126-199 (Homo sapiens); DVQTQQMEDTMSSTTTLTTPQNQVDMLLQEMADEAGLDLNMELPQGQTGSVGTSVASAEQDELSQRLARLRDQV; partner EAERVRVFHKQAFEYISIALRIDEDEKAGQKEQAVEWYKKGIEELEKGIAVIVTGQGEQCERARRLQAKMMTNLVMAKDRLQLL

Under IC50, `FVGEFFTDV` is recorded as “no binding” (HLA class I histocompatibility antigen, A alpha chain, allele A*11:01 (Homo sapiens, UniProt P04439); binding; peptide, human cells).
For `P1 D114A`, the Kd was 3.5 µM (ADGRB3 CUB domain (Homo sapiens); ITC; with: Ca2+ 2 mM).
`P2 M27P E34P` gave a Kd of greater than 1.9 µM (UHRF1 PHD finger 304-372 (Mus musculus); ITC).
With `P3 A399S` the Kd was 21.6 µM (CACNA1C JBM (Mus musculus); ITC).
With `P4 K403A K404A L405A K406A E408A D409A` the relative binding was 0.49 (BRF1 (Saccharomyces cerevisiae); immobilized template assay; reference: unchanged protein, higher = more partner bound).
`GGUUUGUUACUGAUAAAGCAGGCAAGACC (ssRNA (Bacillus subtilis); hairpin, two internal loops)` gave a Kd of 32 ± 12 µM (licT 1-56 N9H (Bacillus subtilis, UniProt P39805); SPR; folded RNA).
`P5 Y123A` has a Kd of 20 µM (TLN1 F3 domain, 309-400 (Mus musculus); NMR titration).
The Kd of `GGAUUGUUACUGAUAAAGCAGGCAAAACC (ssRNA; hairpin, two internal loops)` is reported as 0.05 ± 0.02 µM (licT 1-56 A4K (Bacillus subtilis, UniProt P39805); SPR; folded RNA).
With `P3 S165Q` the relative binding was 100% (CACNA1C JBM (Mus musculus); Strep pull-down; 3 µM, read off a plot; reference: unchanged protein, higher = more binding).
With `P6 E59A` the Kd was greater than 152 µM (SPAST MIT domain, 112-195 (Homo sapiens); SPR).

A few entries again:
The Kd of `GGAUUGUUACUGAUAAAGCAGGCAAAACC (ssRNA; hairpin, two internal loops)` is reported as 0.05 ± 0.02 µM (licT 1-56 A4K (Bacillus subtilis, UniProt P39805); SPR; folded RNA).
`GGUUUGUUACUGAUAAAGCAGGCAAGACC (ssRNA (Bacillus subtilis); hairpin, two internal loops)` gave a Kd of 32 ± 12 µM (licT 1-56 N9H (Bacillus subtilis, UniProt P39805); SPR; folded RNA).
